Assay results from different studies.
Each line is one published result; not all experiments were run side by side.
Organism: Pseudomonas aeruginosa

| SMILES | test | test system | conditions | MIC |
| --- | --- | --- | --- | --- |
| CCCCCCCC(=O)N[C@@H](CCN)C(=O)N[C@H](C(=O)N[C@@H](CCN)C(=O)N[C@H]1CCNC(=O)[C@H]([C@@H](C)O)NC(=O)[C@H](CCN)NC(=O)[C@H](CCN)NC(=O)[C@H](CC(C)C)NC(=O)[C@@H](Cc2ccccc2)NC(=O)[C@H](CCN)NC1=O)[C@@H](C)O | broth microdilution | PAO1, colistin-susceptible | – | 0.25 µg/mL |
| CCCCCCCCCCCC[N+](C)(C)CCCCCCCCOc1cc(OCCCCCCCC[N+](C)(C)CCCCCCCCCCCC)cc(OCCCCCCCC[N+](C)(C)CCCCCCCCCCCC)c1.[Br-].[Br-].[Br-] | – | PAO1 | – | 125 µM |
| COc1cc(C(=O)Nc2ccc(C(=O)O)c(O)c2)ccc1NC(=O)c1ccc(NC(=O)[C@H](Cc2c[nH]nn2)NC(=O)c2ccc(NC(=O)/C(C)=C/c3ccc(O)cc3)cc2)cc1 | broth microdilution | ciprofloxacin-resistant | – | 32 µg/mL |
| CO[C@H]1O[C@H](COC(c2ccccc2)(c2ccccc2)c2ccccc2)[C@@H](OS(=O)(=O)c2ccccc2)[C@H](OS(=O)(=O)c2ccccc2)[C@H]1OS(=O)(=O)c1ccccc1 | microbial growth, broth dilution | – | – | 0.25 µg/mL |
| CN[C@H](CC(C)C)C(=O)N[C@H]1C(=O)N[C@@H](CC(N)=O)C(=O)N[C@H]2C(=O)N[C@H]3C(=O)N[C@H](C(=O)N[C@H](C(=O)NCc4cn(CCCCC(=O)N[C@H](C(=O)N[C@@H](CCN)C(=O)N[C@H]5CCNC(=O)[C@H]([C@@H](C)O)NC(=O)[C@H](CCN)NC(=O)[C@H](CCN)NC(=O)[C@H](CC(C)C)NC(=O)[C@@H](CC(C)C)NC(=O)[C@H](CCN)NC5=O)[C@@H](C)O)nn4)c4cc(O)cc(O)c4-c4cc3ccc4O)[C@H](O)c3ccc(c(Cl)c3)Oc3cc2cc(c3O[C@@H]2O[C@H](CO)[C@@H](O)[C@H](O)[C@H]2O[C@H]2C[C@](C)(N)[C@H](O)[C@H](C)O2)Oc2ccc(cc2Cl)[C@H]1O | broth microdilution | ATCC 27853, cation-adjusted Mueller-Hinton broth | 18 to 20 h, 37 °C, 0.002% polysorbate 80 | 32 µg/mL |
| C#CCO/N=C(\C(=O)N[C@@H]1C(=O)N(OS(=O)(=O)O)C1(C)C)c1csc(N)n1 | agar dilution | ATCC 27853 | – | > 64 µg/mL |
| CCCCCCCCCCCC(=O)Oc1c(C)c(OC)c2c(c1C)OC(=O)[C@@H](CCCCCCCCCC)[C@]2(O)/C=C/c1ccccc1 (relative stereo) | microbial growth, broth dilution | ATCC27853 | – | 5000 µg/mL |
| CC[C@H](C)[C@H](NC(=O)[C@H](CCC(N)=O)NC(=O)[C@H](Cc1ccccc1)NC(=O)[C@H](CC(N)=O)NC(=O)[C@H](CCCCN)NC(=O)[C@H](CC(C)C)NC(=O)[C@H](CCCNC(=N)N)NC(=O)[C@H](CCCCN)NC(=O)[C@H](CCCCN)NC(=O)[C@@H](NC(=O)[C@H](CO)NC(=O)[C@H](CCCCN)NC(=O)CNC(=O)[C@H](CC(C)C)NC(=O)[C@H](CCCCN)NC(=O)[C@H](CCCCN)NC(=O)[C@H](CC(C)C)NC(=O)[C@H](CCCCN)NC(=O)[C@H](CCCCN)NC(=O)[C@H](CCCNC(=N)N)NC(=O)[C@H](CC(C)C)NC(=O)CNC(=O)[C@@H](N)CCCNC(=N)N)[C@@H](C)CC)C(=O)NCC(=O)N[C@@H](Cc1ccccc1)C(=O)N[C@@H](CO)C(=O)N[C@H](C(=O)N1CCC[C@H]1C(=O)N[C@@H](Cc1ccccc1)C(=O)N[C@@H](C)C(=O)NCC(=O)O)C(C)C | broth microdilution | PAO1, cation-adjusted Mueller-Hinton broth | 16 h, 37 °C | 8 µg/mL |
| COc1ccc2ccc(O)c(/C=N/[C@H]3CCCC[C@H]3/N=C/c3c(C)cccc3O)c2c1 | microbial growth, broth dilution | – | clinical isolate | > 40 µM |
| CC1(C)[C@H](NC(=O)/C(=N\OC2(C(=O)O)CCCC2)c2csc(N)n2)C(=O)N1OS(=O)(=O)O | agar dilution | PAO1 | – | 2 µg/mL |
| CC[C@H]1OC(=O)[C@H](C)[C@@H](O[C@H]2C[C@@](C)(OC)[C@@H](O)[C@H](C)O2)[C@H](C)[C@@H](O[C@@H]2O[C@H](C)C[C@H](N(C)C)[C@H]2O)[C@](C)(OC)C[C@@H](C)C(=O)[C@H](C)[C@@H](O)[C@]1(C)O | – | PAO397, five efflux pumps deleted | – | > 32 µg/mL |
| O=c1c(O)ccc(Br)cc1O | broth microdilution | ATCC 27853, CAMHB | 16 to 24 h, ≥80% growth inhibition | > 71.4 µM |
| COc1c(NC(=O)c2ccc(NC(=O)[C@H](Cc3c[nH]nn3)NC(=O)c3ccc(NC(=O)/C(C)=C/c4ccc(O)cc4)cc3)cc2)ccc(C(=O)Nc2ccc(C(=O)O)c(O)c2)c1O | broth microdilution | ciprofloxacin-resistant | – | 32 µg/mL |
| CC[C@H]1OC(=O)[C@H](C)[C@@H](OC(=O)Cc2cccc(Cl)c2)[C@H](C)[C@@H](O[C@@H]2O[C@H](C)C[C@H](N(C)C)[C@H]2O)[C@](C)(OC)C[C@@H](C)C(=O)[C@H](C)[C@@H](O)[C@]1(C)O | – | PAO397, five efflux pumps deleted | – | > 32 µg/mL |
| CO[C@@H]1[C@@H](OC(N)=O)[C@@H](O)[C@H](Oc2ccc3c(O)c(NC(=O)c4ccc(O)c(CC=C(C)C)c4)c(=O)oc3c2C)OC1(C)C | broth microdilution | pyocyanin non-producing | – | 1020 µg/mL |
| CCCCCCn1cc[n+](CCCCCCCCOc2cc(OCCCCCCCC[n+]3ccn(CCCCCC)c3)cc(OCCCCCCCC[n+]3ccn(CCCCCC)c3)c2)c1.[Br-].[Br-].[Br-] | – | PAO1 | – | 2 µM |
| CC(C)C[C@@H]1NC(=O)[C@@H](CC(C)C)NC(=O)[C@H](CCN)NC(=O)[C@@H](NC(=O)[C@H](CCN)NC(=O)[C@@H](N)[C@@H](C)O)CCNC(=O)[C@H]([C@@H](C)O)NC(=O)[C@H](CCN)NC(=O)[C@H](CCN)NC1=O | broth microdilution | ATCC 13883, cation-adjusted Mueller-Hinton broth | – | > 138 µM |
| CC1(C)[C@H](NC(=O)/C(=N\OCc2c(Cl)cccc2Cl)c2nsc(N)n2)C(=O)N1OS(=O)(=O)O | agar dilution | PAO1 | – | > 64 µg/mL |
| N=C(N)NCCC[C@@H]1NC(=O)[C@H](CCCNC(=N)N)NC(=O)[C@@H](CCCNC(=N)N)NC(=O)[C@@H](CCCNC(=N)N)NC(=O)[C@@H](C(c2ccccc2)c2ccccc2)NC(=O)[C@@H](Cc2c[nH]c3ccccc23)NC(=O)[C@@H](C(c2ccccc2)c2ccccc2)NC1=O | – | ATCC 27853 | – | 64 µg/mL |
| CC[C@H]1OC(=O)[C@H](C)[C@@H](OC(=O)Cc2cccc3ccccc23)[C@H](C)[C@@H](O[C@@H]2O[C@H](C)C[C@H](N(C)C)[C@H]2O)[C@](C)(OC)C[C@@H](C)C(=O)[C@H](C)[C@@H](O)[C@]1(C)O | – | PAO397, five efflux pumps deleted | – | > 32 µg/mL |
| C/C(=C\c1ccc(O)cc1)C(=O)Nc1ccc(C(=O)N[C@@H](Cc2c[nH]nn2)C(=O)Nc2ccc(C(=O)Nc3ccc(C(=O)Nc4ccc(C(=O)O)cc4)cc3)cc2)cc1 | broth microdilution | ciprofloxacin-sensitive | – | 32 µg/mL |
| O=C(O)c1cn(C2CC2)c2cc(N3CCNCC3)c(F)cc2c1=O | microbial growth, broth dilution | PAO1 | – | 0.06 µg/mL |
| COc1ccc2ccc(O)c(/C=N/[C@H]3CCCC[C@H]3/N=C/c3cc(C(C)(C)C)cc(C(C)(C)C)c3O)c2c1 | microbial growth, broth dilution | – | clinical isolate | > 40 µM |
| CC1(C)[C@H](NC(=O)/C(=N\OCc2cc(=O)c(O)cn2O)c2csc(N)n2)C(=O)N1OS(=O)(=O)O | microbial growth, agar dilution | ATCC27 | – | 2 µg/mL |

Excerpt of the above:
| SMILES | test | test system | conditions | MIC |
| --- | --- | --- | --- | --- |
| CC1(C)[C@H](NC(=O)/C(=N\OCc2c(Cl)cccc2Cl)c2nsc(N)n2)C(=O)N1OS(=O)(=O)O | agar dilution | PAO1 | – | > 64 µg/mL |
| CC[C@H](C)[C@H](NC(=O)[C@H](CCC(N)=O)NC(=O)[C@H](Cc1ccccc1)NC(=O)[C@H](CC(N)=O)NC(=O)[C@H](CCCCN)NC(=O)[C@H](CC(C)C)NC(=O)[C@H](CCCNC(=N)N)NC(=O)[C@H](CCCCN)NC(=O)[C@H](CCCCN)NC(=O)[C@@H](NC(=O)[C@H](CO)NC(=O)[C@H](CCCCN)NC(=O)CNC(=O)[C@H](CC(C)C)NC(=O)[C@H](CCCCN)NC(=O)[C@H](CCCCN)NC(=O)[C@H](CC(C)C)NC(=O)[C@H](CCCCN)NC(=O)[C@H](CCCCN)NC(=O)[C@H](CCCNC(=N)N)NC(=O)[C@H](CC(C)C)NC(=O)CNC(=O)[C@@H](N)CCCNC(=N)N)[C@@H](C)CC)C(=O)NCC(=O)N[C@@H](Cc1ccccc1)C(=O)N[C@@H](CO)C(=O)N[C@H](C(=O)N1CCC[C@H]1C(=O)N[C@@H](Cc1ccccc1)C(=O)N[C@@H](C)C(=O)NCC(=O)O)C(C)C | broth microdilution | PAO1, cation-adjusted Mueller-Hinton broth | 16 h, 37 °C | 8 µg/mL |
